{"data": "Results of several laboratories", "note": "Lines come from different studies, so protocols differ. “And” joins repeats or separate records; there may be more than shown. ± gives the spread as reported."}
{"Molecule": "CC(C)C[C@@H]1NC(=O)[C@H](C(C)C)NC(=O)[C@H](CC(N)=O)NC(=O)[C@H](CO)NC(=O)[C@H](CO)NC(=O)[C@H](CC(=O)O)NC(=O)[C@H](CC(=O)O)NC(=O)[C@H](Cc2ccccc2)NC(=O)[C@H](Cc2ccc(O)cc2)NC(=O)[C@@H](N)CSSC[C@@H](C(=O)N[C@@H](CCCCN)C(=O)N[C@@H](CCCCN)C(=O)N[C@@H](Cc2ccc(O)cc2)C(=O)N[C@@H](CCCNC(=N)N)C(=O)N[C@@H](CO)C(=O)O)NC1=O", "test system": "Sprague-Dawley rat, male, whole blood", "conditions": "0.1 mg/mL, 37 °C, in vitro stability", "half-life": "1.17 h"}
{"Molecule": "CCC(CC)[C@H](NC(C)=O)[C@@H]1[C@H](O)[C@@H](C(=O)OCCOC(=O)[C@@H](N)C(C)C)C[C@H]1NC(=N)N", "test system": "male Sprague-Dawley rats, rat intestinal fluid", "conditions": "80 µg/mL, pH 6.6, 37 °C", "half-life": "2.68 ± 0.2 h"}
{"Molecule": "COc1cccc(-c2n[nH]c(SCc3ccccn3)n2)c1O", "test system": "Sprague-Dawley rat, male and female, plasma", "conditions": "oral, 100 mg/kg of parent drug", "half-life": "3.67 h"}
{"Molecule": "N[C@H](COc1ccccc1C(F)(F)F)c1ccccc1", "test system": "male Sprague-Dawley rat", "conditions": "oral, 25 mg/kg", "half-life": "6.5 h"}
{"Molecule": "CN1CCN(c2ccc(Nc3ncc(Cl)c(Nc4ccccc4P(C)(C)=O)n3)cc2Br)CC1", "test system": "Sprague-Dawley rat, male, plasma", "conditions": "oral, 25 mg/kg", "half-life": "26.6 h and 12.1 h and 7.1 h"}
{"Molecule": "CCC(CC)[C@H](NC(C)=O)[C@@H]1[C@H](O)[C@@H](C(=O)N[C@H](C(=O)O)[C@@H](C)CC)C[C@H]1NC(=N)N", "test system": "male Sprague-Dawley rats, rat gastric fluid", "conditions": "100 µg/mL, pH 1.3, 37 °C", "half-life": "27.6 ± 0.6 h"}
{"Molecule": "COc1c(O)cccc1-c1n[nH]c(SCc2ccccn2)n1", "test system": "Sprague-Dawley rat, male and female, plasma", "conditions": "oral, 100 mg/kg of parent drug", "half-life": "0.69 h"}
{"Molecule": "COC(=O)/C=C/C(=O)c1ccc(OC)cc1", "test system": "Sprague-Dawley rat, both sexes, plasma", "conditions": "oral, 100 mg/kg", "half-life": "7.17 ± 0.56 h"}
{"Molecule": "COc1cc2oc(-c3ccc(O)cc3)cc(=O)c2c(O)c1[C@@H]1O[C@H](CO)[C@@H](O)[C@H](O)[C@H]1O[C@@H]1O[C@H](CO)[C@@H](O)[C@H](O)[C@H]1O", "test system": "male Sprague-Dawley rat, PCPA-induced insomnia, plasma", "conditions": "oral, 6.8 g/kg", "half-life": "2.75 ± 0.92 h"}
{"Molecule": "CCCCC/C=C/C=C/C(=O)NCC(C)C", "test system": "rat, sham-operated, plasma", "conditions": "oral, 50 mg/kg", "half-life": "2.13 ± 0.63 h"}
{"Molecule": "COc1cc(C=CC(=O)OCC2OC(OC3C(c4c(OC)cc5oc(-c6ccc(O)cc6)cc(=O)c5c4O)OC(CO)C(O)C3O)C(O)C(O)C2O)ccc1O (stereo not drawn)", "test system": "male Sprague-Dawley rat, normal, plasma", "conditions": "oral, 6.8 g/kg", "half-life": "1.87 ± 1.1 h"}
{"Molecule": "NC(=O)c1cnc2[nH]ccc2c1NC1C2CC3CC1CC(OS(=O)(=O)O)(C3)C2 (stereo not drawn)", "test system": "Japanese adults, moderate hepatic impairment, plasma", "conditions": "oral, 150 mg single dose", "half-life": "12.2 h"}
{"Molecule": "COC(=O)C(Cc1c[nH]cn1)NC(=O)C1(C)C(O)CCC2(C)C1CCC1(C)C2CC=C2C3C(C)C(C)CCC3(C)CCC21C (stereo not drawn)", "test system": "rat, fecal matter in phosphate buffer", "conditions": "12 h, 37 °C", "half-life": "12.1 h"}
{"Molecule": "CN(C)C(=O)c1ccnc(N2Cc3cn(Cc4ccc(F)cc4F)nc3C2)n1", "test system": "Sprague Dawley rat, brain", "conditions": "dose not given", "half-life": "4.2 h and 2.6 h"}
{"Molecule": "CCCCCCCCCCCCCCCC(=O)NCCOCCOCCOCCOCCOCCOCCOCCOCCC(=O)NCCCC[C@H](NC(=O)CNC(=O)[C@@H]1CSSC[C@H](N)C(=O)N[C@@H](Cc2ccc(O)cc2)C(=O)N[C@@H]([C@@H](C)CC)C(=O)N[C@@H](CCC(N)=O)C(=O)N[C@@H](CC(N)=O)C(=O)N1)C(=O)NCC(N)=O", "test system": "male Wistar Hannover rat, plasma", "conditions": "intravenous bolus, 0.1 mg/kg", "half-life": "8.5 h"}
{"Molecule": "Cn1cc(C(N)=O)c(NC2C3CC4CC2CC(O)(C4)C3)c2ccnc1-2 (stereo not drawn)", "test system": "Japanese adults, moderate hepatic impairment, plasma", "conditions": "oral, 150 mg single dose", "half-life": "15.1 h"}
{"Molecule": "Cc1noc(C)c1Cn1cc(N2C(=O)CN(Cc3cccc(OS(=O)(=O)O)c3)C2=O)cn1", "test system": "rat Sprague-Dawley male, plasma", "conditions": "oral, 10 mg/kg of parent drug", "half-life": "2.9 h"}
{"Molecule": "Ac-CSNLSTCXLGRLSQDLHRLQTYPKTDVGANAP-NH2 (N-acetyl, C-amide)", "test": "ELISA", "test system": "peptide, high-fat diet Sprague Dawley rats, plasma", "conditions": "subcutaneous, 4 nmol/kg", "half-life": "0.44 ± 0.1 h"}
{"Molecule": "Cc1noc(C)c1Cn1cc(N2C(=O)CN(Cc3cccc(O[C@@H]4O[C@H](C(=O)O)[C@@H](O)[C@H](O)[C@H]4O)c3)C2=O)cn1", "test system": "rat Sprague-Dawley male, plasma", "conditions": "oral, 100 mg/kg of parent drug", "half-life": "4.2 h"}
{"Molecule": "Cc1ccc(OCC(=O)O)cc1", "test system": "Sprague-Dawley rat, both sexes, plasma", "conditions": "oral, all doses and days, metabolite of dosed drug", "half-life": "1.43 to 4.41 h"}
{"Molecule": "CN[C@@H]1[C@H](O)[C@H](NC)[C@H]2O[C@]3(O)[C@H](O[C@@H]2[C@H]1O)O[C@H](C)C[C@@]3(O)CNCc1ccc(Cl)cc1", "test system": "rat", "conditions": "intravenous, 10 mg/kg", "half-life": "1.74 h"}
{"note": "Some of these lines once more:"}
{"Molecule": "CN(C)C(=O)c1ccnc(N2Cc3cn(Cc4ccc(F)cc4F)nc3C2)n1", "test system": "Sprague Dawley rat, brain", "conditions": "dose not given", "half-life": "4.2 h and 2.6 h"}
{"Molecule": "CCCCCCCCCCCCCCCC(=O)NCCOCCOCCOCCOCCOCCOCCOCCOCCC(=O)NCCCC[C@H](NC(=O)CNC(=O)[C@@H]1CSSC[C@H](N)C(=O)N[C@@H](Cc2ccc(O)cc2)C(=O)N[C@@H]([C@@H](C)CC)C(=O)N[C@@H](CCC(N)=O)C(=O)N[C@@H](CC(N)=O)C(=O)N1)C(=O)NCC(N)=O", "test system": "male Wistar Hannover rat, plasma", "conditions": "intravenous bolus, 0.1 mg/kg", "half-life": "8.5 h"}
